Experimental data collected from several papers.
Every numbered part comes from another study and shows a few of its results, in no order.
Sequence of UniProt P23975 (whole entry, looked up): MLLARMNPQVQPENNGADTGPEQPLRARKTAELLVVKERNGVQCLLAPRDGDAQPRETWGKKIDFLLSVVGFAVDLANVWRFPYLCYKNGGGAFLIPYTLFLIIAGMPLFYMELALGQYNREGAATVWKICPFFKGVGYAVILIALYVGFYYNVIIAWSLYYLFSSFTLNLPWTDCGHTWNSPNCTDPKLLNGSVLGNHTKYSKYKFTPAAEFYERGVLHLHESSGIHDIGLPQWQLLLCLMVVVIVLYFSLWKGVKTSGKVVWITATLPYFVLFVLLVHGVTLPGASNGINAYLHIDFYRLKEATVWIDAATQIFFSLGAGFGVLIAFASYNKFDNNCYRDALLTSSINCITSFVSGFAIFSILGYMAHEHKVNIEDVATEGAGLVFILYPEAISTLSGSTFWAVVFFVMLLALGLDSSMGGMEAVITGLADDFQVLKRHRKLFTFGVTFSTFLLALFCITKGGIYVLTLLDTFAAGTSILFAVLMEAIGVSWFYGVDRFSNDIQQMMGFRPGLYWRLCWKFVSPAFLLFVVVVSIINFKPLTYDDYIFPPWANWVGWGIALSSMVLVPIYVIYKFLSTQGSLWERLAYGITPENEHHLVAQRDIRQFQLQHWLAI

Sample 1
Target: Beta-1 adrenergic receptor (ADRB1, Homo sapiens, UniProt P08588)
Sequence of UniProt P08588 (whole entry, looked up): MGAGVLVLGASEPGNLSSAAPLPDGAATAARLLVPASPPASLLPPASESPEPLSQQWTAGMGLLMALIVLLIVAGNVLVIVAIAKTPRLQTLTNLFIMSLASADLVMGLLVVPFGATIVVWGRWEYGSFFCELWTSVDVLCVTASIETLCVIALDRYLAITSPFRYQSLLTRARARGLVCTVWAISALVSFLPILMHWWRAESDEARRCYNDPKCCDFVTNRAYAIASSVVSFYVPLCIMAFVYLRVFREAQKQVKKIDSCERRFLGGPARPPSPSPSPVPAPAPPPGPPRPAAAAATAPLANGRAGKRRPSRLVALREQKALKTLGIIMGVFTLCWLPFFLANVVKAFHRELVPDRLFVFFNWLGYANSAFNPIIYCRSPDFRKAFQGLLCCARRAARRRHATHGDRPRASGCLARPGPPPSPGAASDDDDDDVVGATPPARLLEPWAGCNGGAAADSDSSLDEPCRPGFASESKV
Action: agonist
| Compound | EC50 |
| --- | --- |
| COc1ccccc1N1CCN(C(=O)c2ccc(-c3cccc(C(F)(F)F)c3)o2)CC1 | ≥ 100 µM |
| O=C(Nc1ccc([C@@H](O)[C@H]2COCC(=O)N2Cc2ccc(F)cc2)cc1)c1ccc2c(c1)OCO2 | ≥ 100 µM |
| Cc1c[nH]c(=O)n(CCCN2CCN(c3ccccc3OCC(F)(F)F)CC2)c1=O | ≥ 100 µM |
| COc1ccc2c(C)cc(=O)oc2c1 | ≥ 100 µM |
| FC(F)(F)c1nnc2ccc(N3CCCN(c4cnc5ccccc5n4)CC3)nn12 | ≥ 100 µM |
| COc1ccc(CN2CC[C@@H]3OCC(=O)N(Cc4c[nH]c5ccccc45)[C@H]3CC2)cc1O | ≥ 100 µM |
| CCOc1ccccc1C(=O)N1CCc2cc(OC)c(OC)cc2C1COc1ccc2c(C)cc(=O)oc2c1 (stereo not shown) | ≥ 100 µM |
| CN(CC(O)COc1cccc(CNCCc2ccc(F)cc2)c1)C1CCCCC1 (stereo not shown) | ≥ 100 µM |

Sample 2
Cell line: HaCaT
Concentration: 100 µM
Time: 36 h
| SMILES | viability [%] |
| --- | --- |
| COc1cc(NS(C)(=O)=O)ccc1Nc1c2ccccc2nc2ccccc12 | 14.2 |
| COCCOC(=O)C1=C(C)NC(C)=C(C(=O)OC(C)C)C1c1cccc([N+](=O)[O-])c1 (stereo not shown) | 6.26 |
| O=C(N[C@H](CO)[C@H](O)c1ccc([N+](=O)[O-])cc1)C(Cl)Cl | 114 |
| C[C@@H]1O[C@@H](OC[C@H]2O[C@@H](Oc3c(-c4ccc(O)c(O)c4)oc4cc(O)cc(O)c4c3=O)[C@H](O)[C@@H](O)[C@@H]2O)[C@H](O)[C@H](O)[C@H]1O | 97.1 |
| CC1CC(OC(=O)C(O)c2ccccc2)CC(C)(C)C1 (stereo not shown) | 8.78 |
| C#C[C@]1(OC(C)=O)CC[C@H]2[C@@H]3CCC4=C[C@@H](OC(C)=O)CC[C@@H]4[C@H]3CC[C@@]21C | 8.1 |
| CC(C)(C)c1ccc(C(O)CCCN2CCC(C(O)(c3ccccc3)c3ccccc3)CC2)cc1 (stereo not shown) | 12.9 |
| Cc1ncc([N+](=O)[O-])n1CC(O)CCl (stereo not shown) | 90.3 |

Further values, each from its own experiment
| Substance | tested on | test | test system | conditions | scale | measurement | value |
| --- | --- | --- | --- | --- | --- | --- | --- |
| CC[N+](CC)(CC)CCOc1cccc(OCC[N+](CC)(CC)CC)c1OCC[N+](CC)(CC)CC | Plasmodium berghei |  | Huh-7, liver stage | 10 µM, 24 h | baseline: control | parasite load | 102% |
| CCC(=O)N[C@@H]1CC[C@H](C(=O)N(C)c2ccc(-c3nc4ccccc4o3)cc2)C1 | SLC6A2 (Homo sapiens, UniProt P23975) | binding, radioligand binding |  | 10 µM |  | inhibition | 14.5% |
| DTFDEAFLAAVRSHQG | Saccharomyces cerevisiae | binding, yeast competitive growth sequencing | peptide, cyclin D1-Cln2 strain, peptide tiling library |  | direction not given | enrichment score | 2.22 |
